Published values gathered from unrelated publications.
Each line is one published result; not all experiments were run side by side. Several values in a cell are separate wells, animals, samples, runs or records. ± gives the spread as reported.

SMILES | assay | test system | conditions | Cmax
CCCCOCCOc1ccc(-c2ccc3c(c2)/C=C(/C(=O)Nc2ccc([S@@+]([O-])Cc4cncn4CCC)cc2)CCCN3CC(C)C)cc1 |  | moderate hepatic impairment patients, plasma | oral, 150 mg, day 1, single dose, geometric mean | 387 ng/mL
O=C1c2ccncc2C(=O)c2c1[nH]c1ccccc21 |  | Sprague-Dawley rat, male, plasma | intravenous, 5 mg/kg | 2.33 ± 0.884 µM
Cc1cccc(CNC(=O)c2cn(CCNC(=O)c3ccccc3Sc3c([N+](=O)[O-])ncn3C)c3cc4c(cc3c2=O)OC(F)(F)O4)n1 |  | Sprague-Dawley rat, male, plasma | intramuscular, 3 mg/kg of parent drug | 47.8 ± 8.6 ng/mL
O=c1oc2c(O)c(O)cc3c(=O)oc4c(O)c(O)cc1c4c23 |  | rat, plasma | oral, 1000 mg/kg extract, possible metabolite or extract component | 300 ± 60 ng/mL
CCCCCOC(=O)Nc1nc(=O)n([C@@H]2O[C@H](C)[C@@H](O)[C@H]2O)cc1F |  | Sprague-Dawley rat, plasma | oral, 200 mg/kg, together with: chitooligosaccharide 20 min before glucosamine 250 mg/kg | 27600 ± 3060 ng/mL
Cc1nc(-c2cnc(NC(C)C)n(C)c2=O)ccc1Oc1ccnc(-c2cnn(C)c2)c1 |  | Sprague-Dawley rat, male, plasma | oral, 10 mg/kg, crossover study | 16100 ng/mL
Cc1ccc(S(=O)(=O)n2cc3c4c2C(=O)C(NCc2ccc(Cl)cc2)=CC4=NCC3)cc1 |  | Sprague-Dawley rat, plasma | intravenous, 5 mg/kg | 1340 ng/mL and 1270 ng/mL and 1070 ng/mL
C=CC(=O)N1CCC([C@@H]2CCNc3c(C(N)=O)c(-c4ccc(Oc5ccccc5)cc4)nn32)CC1 |  | Sprague-Dawley rats, plasma | oral, 16 mg/kg, together with: posaconazole 40 mg/kg | 597 ± 195 ng/mL
CN(C)C(=O)c1cc2cnc(Nc3ccc(N4CCNCC4)cn3)nc2n1C1CCCC1 | striatal microdialysis, recovery corrected | Sprague-Dawley rat male, brain extracellular fluid | intraperitoneal, 100 mg/kg | 197 ng/mL
CCOCC(=O)N1CCC[C@H](C(=O)NCc2nc(-c3ccc(C)nc3)cs2)C1 |  | Sprague-Dawley rat, male, plasma | oral, 3 mg/kg | 17 µM
CCn1cc(Cl)c2c(Cc3ccc(C(F)(F)F)nc3)n(C)nc2c1=O |  | Sprague-Dawley rat, male | oral, 3 mg/kg, suspension | 2.27 µM
CCC[C@H](NC(=O)[C@@H]1CCCN1C(=O)[C@@H](NC(=O)[C@H](N)CC(N)=O)[C@@H](C)CC)C(=O)N[C@@H](CC(C)C)C(=O)N[C@@H](Cc1ccc(O)cc1)C(=O)N[C@H](CO)C(=O)N[C@@H](Cc1ccccc1)C(=O)N[C@@H](C)C(=O)N[C@H](CO)C(N)=O |  | male Sprague-Dawley rat, plasma | subcutaneous, 10 mg/kg single | 711 ng/mL
CNC(=O)c1cccc(-c2ccc([C@@H](O)[C@H]3O[C@H](CO)[C@@H](O)[C@H](O)[C@@H]3O)c(C)c2)c1 |  | male Sprague-Dawley rat, plasma | intravenous, 3 mg/kg, group mean | 3410 ng/mL
N=C(N)NCCNC(=O)C1(Nc2ccccc2)CCN(Cc2ccccc2)CC1 |  | Sprague-Dawley rats (female), plasma | oral, 50 mg/kg | 313 ± 82.7 ng/mL
COC(=O)C1=CO[C@@H](O[C@@H]2O[C@H](CO)[C@@H](O)[C@H](O)[C@H]2O)[C@@H]2C(CO)=CC[C@H]12 |  | rat, plasma | oral, 500 mg/kg Eu + 217 mg/kg Pc extract, dosed as combined Eu and Pc extracts | 32.8 ± 42.7 ng/mL
Cc1cccc(CNC(=O)c2cn(CCNC(=O)c3ccccc3S)c3cc4c(cc3c2=O)OC(F)(F)O4)n1 |  | Sprague-Dawley rat, male, whole blood | intramuscular, 10 mg/kg of parent drug | 356 ± 167 ng/mL
COCC(=O)N1CCC[C@H](C(=O)NCc2nc(-c3ccc(C#N)cc3)cs2)C1 |  | Sprague-Dawley rat, male, plasma | oral, 3 mg/kg | 21 µM

SMILES | assay | test system | conditions | Cmax
CN1CCC[C@H](CN2c3ccccc3Sc3ccccc32)C1.Cl |  | female Wistar rat, lymph node | oral, 16 mg/kg | 3870 ng/g
C=CC(=O)N1CCC(Oc2cc3c(Nc4ccc(Cl)c(Cl)c4F)ncnc3cc2OC)CC1 |  | Sprague-Dawley rat, male, plasma | oral, 2 mg/kg, 1 weeks pretreatment, together with: Schisandrin B 20 mg/kg daily pretreatment | 1680 ± 139 ng/mL
Cn1c(C(F)(F)F)cc(=O)n(-c2cc(Oc3cccnc3OCC(=O)O)c(Cl)cc2F)c1=O |  | Crl:CD(SD) rats, female, plasma | oral diet, 800 ppm in diet, day 1, 90-day toxicity study | 1130 ng/mL
OCC1=C[C@@H](O)[C@@H]2C=CO[C@@H](O[C@@H]3O[C@H](CO)[C@@H](O)[C@H](O)[C@H]3O)[C@H]12 |  | rat, plasma | oral, 500 mg/kg Eu + 217 mg/kg Pc extract, dosed as combined Eu and Pc extracts | 35.7 ± 17.1 ng/mL
O=C(O)c1cc(O)c(O)c(O)c1 |  | rat, plasma | oral, 500 mg/kg extract, extract | 1180 ± 120 ng/mL
CCc1c2c(nc3ccc(OC(=O)N4CCC(N5CCCCC5)CC4)cc13)-c1cc3c(c(=O)n1C2)COC(=O)[C@]3(O)CC |  | Sprague-Dawley rats, plasma | iv, 10 mg/kg | 3.74 ± 0.42 µM
CNC(=O)c1cccc(-c2ccc(O[C@H]3O[C@H](CO)[C@@H](O)[C@H](O)[C@@H]3O)c(C)c2)c1 |  | male Sprague-Dawley rat, plasma | oral, 10 mg/kg, group mean | 5 ng/mL
CSc1ccccc1C(=O)NCCn1cc(C(=O)NCc2cccc(C)n2)c(=O)c2cc3c(cc21)OC(F)(F)O3 |  | Sprague-Dawley rat, male, whole blood | intramuscular, 3 mg/kg of parent drug | 3.57 ± 1.12 ng/mL
CCCCN1CCN(C(C)C(=O)Nc2c(C)csc2C(=O)OC)CC1 (stereo not drawn) |  | rat (Sprague-Dawley, male), plasma | subcutaneous, 62.3 mmol/L | 2540 ng/mL
CCc1cc(C(=O)NC)c2nccc(N3CCc4c(cc(Cn5ccnc5)cc4-c4cn(C)nc4C(F)(F)F)C3=O)c2c1 |  | Sprague Dawley rat, male, bile duct-cannulated, plasma | oral, 50 mg/kg | 19200 ng/mL
CCCCCCCOc1ccc(CCC(N)(CO)CO)cc1C(F)(F)F.Cl |  | male Sprague-Dawley rat, heart | oral, 1 mg/kg, single dose | 174 ng/g
C=CC(=O)N1CCC[C@@H](n2nc(-c3ccc(Oc4ccccc4)cc3)c3c(N)ncnc32)C1 |  | male Wistar rat, stomach | oral, 50 mg/kg | 97900 ± 1110 ng/g
O=C(O)C1=CO[C@@H](O[C@@H]2O[C@H](CO)[C@@H](O)[C@H](O)[C@H]2O)[C@@H]2C(CO)=CC[C@H]12 |  | rat, plasma | oral, 500 mg/kg Eu extract, dosed as Eu extract | 912 ± 635 ng/mL
O=C(O)CCSC[C@H]1O[C@@H]2O[C@H]3[C@H](O)[C@@H](O)[C@@H](O[C@H]4[C@H](O)[C@@H](O)[C@@H](O[C@H]5[C@H](O)[C@@H](O)[C@@H](O[C@H]6[C@H](O)[C@@H](O)[C@@H](O[C@H]7[C@H](O)[C@@H](O)[C@@H](O[C@H]8[C@H](O)[C@@H](O)[C@@H](O[C@H]9[C@H](O)[C@@H](O)[C@@H](O[C@H]1[C@H](O)[C@H]2O)O[C@@H]9CSCCC(=O)O)O[C@@H]8CSCCC(=O)O)O[C@@H]7CSCCC(=O)O)O[C@@H]6CSCCC(=O)O)O[C@@H]5CSCCC(=O)O)O[C@@H]4CSCCC(=O)O)O[C@@H]3CSCCC(=O)O |  | Sprague Dawley rats, plasma | intranasal, 5 mg/kg, together with: rocuronium bromide IV | 458 ng/mL
C#C[C@]1(CO)O[C@@H](n2cnc3c(N)nc(F)nc32)C[C@@H]1O |  | rat, plasma | 100 mg/kg/day, 7 days | 28.3 µM
CC(C)c1nc(N(C)S(C)(=O)=O)nc(-c2ccc(F)cc2)c1/C=C/[C@@H](O)C[C@@H](O)CC(=O)O |  | Wistar albino rat, both sexes, plasma | oral, 20 mg/kg | 599 ng/mL and 405 ng/mL and 921 ng/mL
